Measurements from different studies.
Protocols differ between the studies behind these lines. Values joined by “and” are separate records of one study, mostly repeats; a detail may differ. Numbers after ± are the reported error.

Structure (SMILES) | assay | system | conditions | how to read | quantity | result
C[C@]1(CO)Cc2ncn(-c3ccc(C#N)c(Cl)c3)c2C(=O)O1 | – | human, Chinese, plasma | 80 mg single dose, geometric mean | – | half-life | 5.4 h
CO[C@H]1C[C@@H]2CC[C@@H](C)[C@@](O)(O2)C(=O)C(=O)N2CCCC[C@H]2C(=O)O[C@H]([C@H](C)C[C@@H]2CC[C@@H](OC(=O)NCCOCCOCCOCCOCCOCCOCCOCCOCCC(=O)N3CCc4cc(Cn5nc(-c6ccc7oc(N)nc7c6)c6c(N)ncnc65)ccc4C3)[C@H](OC)C2)C[C@@H](O)[C@H](C)/C=C(\C)[C@@H](O)[C@@H](OC)C(=O)[C@H](C)C[C@H](C)/C=C/C=C/C=C/1C | dose-escalation trial | patients with advanced solid tumours | intravenous, all doses weekly, any grade | – | abdominal pain TEAE incidence | 21.1%
CC(C)C[C@@H]1NC(=O)CNC(=O)[C@H](CC(N)=O)NC(=O)[C@H](CCCNC(=N)N)NC(=O)[C@H]([C@@H](C)O)NC(=O)[C@@H]2CSSC[C@@H]3NC(=O)[C@H]([C@@H](C)O)NC(=O)CNC(=O)CNC(=O)[C@H](C(C)C)NC(=O)[C@@H]4CSSC[C@H](NC(=O)[C@H]([C@@H](C)O)NC(=O)[C@H](CSSC[C@H](NC(=O)[C@H](C(C)C)NC(=O)[C@@H]5CCCN5C1=O)C(=O)NCC(=O)N[C@@H](CCC(=O)O)C(=O)N[C@@H]([C@@H](C)O)C(=O)N4)NC(=O)CNC(=O)[C@@H]1CCCN1C(=O)[C@H]([C@@H](C)O)NC(=O)[C@H](CC(N)=O)NC3=O)C(=O)N[C@@H](CO)C(=O)N[C@@H](Cc1c[nH]c3ccccc13)C(=O)N1CCC[C@H]1C(=O)N[C@@H](CCCCN)C(=O)N2 | HPLC | ammonium bicarbonate | 180 µM, 7 days, pH 9.0, 25 °C, deamidation stability | – | remaining peptide | 89.7 ± 0.8%
N=C(N)NCCC[C@@H](NC(=O)[C@@H](N)Cc1ccccc1)C(=O)N[C@@H](Cc1ccccc1)C(=O)N[C@@H](CCCCN)C(N)=O | – | early Huntington's disease patients, plasma | subcutaneous, 5 mg daily, day 7, median | – | AUC(0-inf) | 882 ng·h/mL
N.N.[Cl][Pt][Cl] | – | nude mouse MCF7 xenograft | 5 mg/kg, day 0 | – | body weight | 19.3 ± 0.7 g
CC(C)(c1ccccc1)c1cc(-n2nc3ccccc3n2)c(O)c(C(C)(C)c2ccccc2)c1 | – | human aged 11-16 years | concentration not given, spray sunscreen, 95th percentile | – | daily dermal exposure dose | 53.9 ng/kg/day
c1ccc2c(c1)cc1ccc3cccc4ccc2c1c34 | – | PDMS-water partitioning | PAH compilation | – | literature range of log K | 4.9 to 5.96 log units
COc1cc2c(Oc3ccc4[nH]c(C)cc4c3F)ccnc2cc1OCC1(N)CC1 | – | paediatric recurrent refractory sarcoma | 12 mg | – | grade 3 intestinal obstruction | 9.1%
CC(=O)c1c(C)c2cnc(Nc3ccc(N4CCNCC4)cn3)nc2n(C2CCCC2)c1=O | – | C57BL/6 mouse pups | intraperitoneal, dosed postnatal days P10 to P14 | weight gain reduced below controls | MTD | 10 mg/kg
CC/C(=C(\c1ccccc1)c1ccc(OCCN(C)C)cc1)c1ccccc1 | – | CD-1 mouse, male, lung | intraperitoneal, 30 mg/kg | – | elimination rate constant | 2.68e-05 s⁻¹
CC(C)[C@H](N)C(=O)NCCCS(=O)(=O)O | – | human, plasma | oral, 265 mg twice daily, week 65, steady state | – | MRT(0-inf) | 2 h
CCN(CCO)CCCC(C)Nc1ccnc2cc(Cl)ccc12 (stereo not shown) | – | newly diagnosed glioblastoma patients | oral, 400 mg/dose, grade 1, added: radiotherapy and temozolomide | – | white cell decrease patients | 14%
COc1cccc(Oc2ccccc2NC(=O)CNC(=O)c2cccc3ccccc23)c1 | – | esterase-deficient SCID mice, male, blood | oral, 15 mg/kg/day, 14 days, toxicity study | – | hemoglobin | 13 g/dL and 14.5 g/dL and 12.9 g/dL
O=C(O)CCCOc1ccc(F)cc1-c1cc(-c2ccccc2C(F)(F)F)n(-c2ccccc2)n1 | measured: Glu | Crl:CD(SD) rats, female, blood | iv, 25 µg/kg, 14 days | – | blood chemistry | 123 ± 17.8 mg/dL
CC1=C(O)C(=O)C=C2C1=CC=C1[C@@]2(C)CC[C@@]2(C)[C@@H]3C[C@](C)(C(=O)O)CC[C@]3(C)CC[C@]12C | – | Sprague-Dawley rat pups, multiple-hit infantile spasms model | i.p., 2 mg/kg, PN3 to PN5, CELA-2 arm | – | body weight gain rate | 0.74 g/day
C=C(CN(C(=O)c1c(C(F)F)nn(C)c1F)C1CC1)c1ccc(Cl)cc1Cl | static acute toxicity test | zebrafish (Brachydanio rerio) | 0.482 mg a.i./L, 6 h | – | mortality | 0%
c1ccc2cc3c(cc2c1)-c1cccc2cccc-3c12 | – | polyethylene-water partitioning | PAH compilation | reference: maximum over minimum K | literature range factor | 4
Cc1ccc(-c2ccnc(Nc3ccc(N4CCN(C)CC4)c(C(F)(F)F)c3)n2)cc1 | – | Danio rerio embryos | 5 µM, 5 d | – | toxicity | 0%
COc1cc(C2C3=C(COC3=O)N(CCO)c3cc4c(cc32)CCC4)cc(OC)c1OC (stereo not shown) | – | female Sprague-Dawley rats | intraperitoneal, 400 mg/kg, 48 h, single dose, mean | – | body weight | 210 g
Clc1ccc(Cl)c(-c2cc(Cl)ccc2Cl)c1 | – | Sprague Dawley rat | intraperitoneal, 1 mg/kg, 3 weeks | – | body weight | 176 g
Fc1ccc([C@@H]2CCNC[C@H]2COc2ccc3c(c2)OCO3)cc1 | measured: baseline complaints | healthy volunteers | oral, dose not given, -1 h before LSD | direction not given | List of Complaints score | 1.4 ± 2.1
COc1ccc(-c2c(-c3ccc(C#N)c(F)c3)nc(N3CCC(N)CC3)n(C)c2=O)cc1F | measured: Dyspnea | human patients | oral, 60 mg, dose expansion | – | serious adverse event incidence | 0%
CC(=O)c1c(C)c2cnc(Nc3ccc(C4CCN(CCS(C)(=O)=O)CC4)cn3)nc2n(C2CCCC2)c1=O | – | human, dose-escalation trial, plasma | oral, 50 mg twice daily, day 21, multiple doses | – | clearance | 2340 mL/min
Clc1cc(Cl)c(Cl)c(-c2ccccc2Cl)c1 | – | polyethylene-water partitioning | PCB compilation | reference: maximum over minimum K | literature range factor | 1.1
CN1CC[C@@H](c2c(O)cc(O)c3c(=O)cc(-c4ccc(C(F)(F)F)cc4Cl)oc23)[C@@H]1CO | measured: rectal abscess | AML | oral, 150 mg, grade 3 to 4, intermittent dosing | – | patients with adverse event | 0%
C[C@@H](NC(=O)N1C(=O)[C@H](Cc2ccnc(N)c2)[C@H]1C(=O)O)C1CCCCC1 | – | healthy adult Chinese volunteers | continuous intravenous infusion, 0.3 mg/kg/h, 5-day infusion, CTCAE 5.0 grading | – | incidence of infusion site pain | 0%
O=[N+]([O-])c1cc2c3c(ccc2c2ccccc12)[C@H](O)[C@@H](O)C=C3 | measured: adenocarcinoma mammary tumours | female Sprague-Dawley rats | intramammary, 12.3 µmol per rat, up to 32 weeks | – | tumours per rat | 0.25 ± 0.53
N.N.[Cl][Pt][Cl] | – | mouse xenograft model | dose not given, day 8 | – | body weight | 24 g and 21 g and 19 g and 20 g and 17 g

Excerpt of the above:
Structure (SMILES) | assay | system | conditions | how to read | quantity | result
CC(=O)c1c(C)c2cnc(Nc3ccc(C4CCN(CCS(C)(=O)=O)CC4)cn3)nc2n(C2CCCC2)c1=O | – | human, dose-escalation trial, plasma | oral, 50 mg twice daily, day 21, multiple doses | – | clearance | 2340 mL/min
Clc1cc(Cl)c(Cl)c(-c2ccccc2Cl)c1 | – | polyethylene-water partitioning | PCB compilation | reference: maximum over minimum K | literature range factor | 1.1
CN1CC[C@@H](c2c(O)cc(O)c3c(=O)cc(-c4ccc(C(F)(F)F)cc4Cl)oc23)[C@@H]1CO | measured: rectal abscess | AML | oral, 150 mg, grade 3 to 4, intermittent dosing | – | patients with adverse event | 0%
